# Results collected from several papers.
# Each line is one published result; not all experiments were run side by side. Values joined by “and” are separate records of one study, mostly repeats; a detail may differ. ± marks the error that the study gave.
# Target: Cholinesterase (BCHE, Equus caballus, UniProt P81908)
Structure (SMILES),assay,conditions,IC50
O=C1C=C(OCCCCCCCCn2cc(CNc3ccc4nccnc4c3)nn2)C(=O)c2ccccc21,"enzyme activity, inhibitor, Ellman",,0.22 µM
COC(=O)C1=CO[C@@H](OC(C)=O)[C@@H]2C(Cn3cc(CCCN4C(=O)c5ccccc5C4=O)nn3)=CC[C@H]12,,horse serum enzyme,418 µM and 419 µM
NNC(=O)COc1ccc(Sc2ccc(OCC(=O)NN)cc2)cc1,"enzyme activity, inhibitor, Ellman",,21.8 µM
COc1ccc(O)c(/C=N/N2C(=O)c3ccccc3NC2c2cc(OC)ccc2O)c1 (centres unmarked),"enzyme activity, inhibitor, Ellman",,4 µM
COC(=O)C1=CO[C@@H](O)[C@@H]2C(Cn3cc(-c4ccc(OC)cc4)nn3)=CC[C@H]12,,horse serum enzyme,109.1 ± 0.61 µM
CC(=O)Oc1ccc2c(OC(C)=O)c3ccccc3cc2c1OC(C)=O,"enzyme activity, inhibitor, Ellman",pH 8,69.2 µM
Cc1nc(-c2ccc(Cl)cc2)nc2sc3c(=O)n(CCN4CCOCC4)cnc3c12,"enzyme activity, inhibitor, Ellman",,149 µM
O=C(COc1ccc(Sc2ccc(OCC(=O)N/N=C/c3ccccc3O)cc2)cc1)N/N=C/c1ccccc1O,"enzyme activity, inhibitor, Ellman",,78.9 µM
CC(=O)c1c(O)ccc2ccc(=O)oc12,"enzyme activity, inhibitor, Ellman",,155 µM
"COc1cccc2c1C(O)C1c3c(cc4c(c3-2)OCO4)CCN1C (single isomer, unassigned; (-))","enzyme activity, inhibitor, Ellman",,5.87 ± 0.06 µM
CC(=O)C1=C(C)NC(SCCCSc2nnc(Cc3ccccc3Nc3c(Cl)cccc3Cl)n2-c2ccc(Cl)c(Cl)c2)=NC1c1ccccc1 (centres unmarked),"enzyme activity, inhibitor, Ellman",,11.2 µM
CC(=O)C1=NN(c2ccc3c(C)cc(=O)oc3c2)C(=O)C2CCCN12 (centres unmarked),"enzyme activity, inhibitor, Ellman",pH 8,46.7 µM
COc1ccc(/C=N/NC(=O)COc2ccc(Sc3ccc(OCC(=O)N/N=C/c4ccc(OC)cc4OC)cc3)cc2)c(OC)c1,"enzyme activity, inhibitor, Ellman",,55.4 µM
Cc1nc2ccc(NCc3cn(CCCCCCCCOC4=CC(=O)c5ccccc5C4=O)nn3)cc2nc1C,"enzyme activity, inhibitor, Ellman",,1.7 µM
CCCCCC(=O)Oc1ccc2c(OC(=O)CCCCC)c3ccccc3cc2c1O,"enzyme activity, inhibitor, Ellman",pH 8,5.3 µM and 5.34 µM
"COc1cccc2c1CC1c3c(cc4c(c3-2)OCO4)CCN1C (single isomer, unassigned; (-))","enzyme activity, inhibitor, Ellman",,2.8 ± 0.07 µM
CC(=O)C1=C(C)NC(SCCCSc2nnc(Cc3ccccc3Nc3c(Cl)cccc3Cl)n2-c2ccc(Cl)c(Cl)c2)=NC1c1ccc(C)cc1 (centres unmarked),"enzyme activity, inhibitor, Ellman",,36 µM
O=C(NCCCCCn1ccc2ccc(F)cc21)Oc1ccccc1F,"enzyme activity, inhibitor, HPLC",,0.74 µM
COc1cc(CCC(=O)N2CCC(Cc3ccccc3)CC2)ccc1OCCCCN1CCCCC1,"enzyme activity, inhibitor, Ellman",,0.89 µM
O=C(COc1ccc(Sc2ccc(OCC(=O)N/N=C/c3ccc(O)cc3O)cc2)cc1)N/N=C/c1ccc(O)cc1O,"enzyme activity, inhibitor, Ellman",,84.6 µM
COc1cc2c(cc1O)CCN1Cc3c(ccc(O)c3OC)C[C@@H]21,"enzyme activity, inhibitor, Ellman",,109.3 ± 0.97 µM
CCc1nc([N+](=O)[O-])c(N2CCN(C(=NNc3ccc4c(C)cc(=O)oc4c3)C(C)=O)CC2)n1Cc1ccccc1,"enzyme activity, inhibitor, Ellman",,0.002 µM
CCCCCn1c(SC(C(=O)NCc2ccccc2)C(=O)NCc2ccccc2)nc2cc(C(=O)Nc3cccc(C(F)(F)F)c3)ccc2c1=O,inhibitor,,21.7 µM
O=C1c2ccccc2NC(c2cc([N+](=O)[O-])ccc2O)N1/N=C/c1cc([N+](=O)[O-])ccc1O (centres unmarked),"enzyme activity, inhibitor, Ellman",,17.8 µM
Cc1cc(O)c2c(c1)C(=O)c1c(O)ccc(O)c1C2=O,"enzyme activity, inhibitor, Ellman",,2.99 µM
C=CCN1CCC(N2CCCC2=O)c2cc(Br)ccc21 (centres unmarked),"enzyme activity, inhibitor, Ellman",,< 32 µM
CC(=O)C(=NNc1ccc2c(C)cc(=O)oc2c1)N1CCNCC1,"enzyme activity, inhibitor, Ellman",pH 8,367 µM
Cc1nc2ccc(NCc3cn(CCCCOC4=CC(=O)c5ccccc5C4=O)nn3)cc2nc1C,"enzyme activity, inhibitor, Ellman",,> 100 µM
O=C(COc1ccc(Sc2ccc(OCC(=O)N/N=C/c3ccc(Cl)cc3Cl)cc2)cc1)N/N=C/c1ccc(Cl)cc1Cl,"enzyme activity, inhibitor, Ellman",,75.1 µM
CC(C)=CCCC(C)=CCCC(C)=CCc1c(O)cc(O)c(CC=C(C)C)c1-c1cc2ccc(O)cc2o1,"enzyme activity, inhibitor",,> 200 µM
O=C(/C=C/c1cccc(F)c1)c1cc2ccccc2oc1=O,"enzyme activity, inhibitor",,30 µM
COc1cc(Br)cc(/C=N/N2C(=O)c3ccccc3NC2c2cc(Br)cc(OC)c2O)c1O (centres unmarked),"enzyme activity, inhibitor, Ellman",,11.9 µM
O=C(COc1ccc(Sc2ccc(OCC(=O)N/N=C/c3ccc(Cl)cc3)cc2)cc1)N/N=C/c1ccc(Cl)cc1,"enzyme activity, inhibitor, Ellman",,14.7 µM
COC(=O)C1=CO[C@@H](O)[C@@H]2C(Cn3cc(-c4ccc(F)cc4)nn3)=CC[C@H]12,,horse serum enzyme,281 ± 2.7 µM
O=C(/C=C/c1ccc(Cl)cc1)c1cc2ccccc2oc1=O,"enzyme activity, inhibitor",,> 40 µM
CCCCCCCC(=O)Oc1ccc2c(OC(=O)CCCCCCC)c3ccccc3cc2c1OC(=O)CCCCCCC,"enzyme activity, inhibitor, Ellman",pH 8,> 250 µM
COc1cc2c(cc1O)C1Cc3ccc(O)c(OC)c3C[N+]1(C)CC2 (centres unmarked),"enzyme activity, inhibitor, Ellman",,13.5 ± 0.59 µM
COC(=O)CCC1NC(C(C)=O)=NN(c2ccc3c(C)cc(=O)oc3c2)C1=O (centres unmarked),"enzyme activity, inhibitor, Ellman",pH 8,3.4 µM
O=C(Cc1ccccc1Nc1c(Cl)cccc1Cl)NNC(=S)Nc1ccc(Cl)c(Cl)c1,"enzyme activity, inhibitor, Ellman",,29.5 µM
COc1cc2c(cc1OC(C)=O)CCN1Cc3c(ccc(OC(C)=O)c3OC)C[C@@H]21,"enzyme activity, inhibitor, Ellman",,63.1 ± 0.83 µM
O=C1CCCC2=C1C(c1c[nH]c3ccccc13)n1c(sc(=Cc3c[nH]c4ccccc34)c1=O)=N2 (centres unmarked),"enzyme activity, inhibitor, Ellman",,17.2 µM
O=C(/C=C/c1ccccc1)c1cc2ccccc2oc1=O,"enzyme activity, inhibitor",,> 40 µM
COc1cc(/C=C/C(=O)OC[C@H]2O[C@@H](Oc3c(-c4ccc(O)cc4)oc4cc(O)cc(O)c4c3=O)[C@H](O)[C@@H](OC(=O)/C=C/c3ccc(O)cc3)[C@@H]2O)ccc1O,"enzyme activity, inhibitor, Ellman",,113 µM
"CN1CCc2cc3c(c4c2C1C(O)c1ccccc1-4)OCO3 (single isomer, unassigned; (-))","enzyme activity, inhibitor, Ellman",,7.42 ± 0.16 µM
CC(=O)C(Cl)=NNc1ccc2c(C)cc(=O)oc2c1,"enzyme activity, inhibitor, Ellman",pH 8,458 µM
CC(C)c1ccc(/C=N/NC(=O)COc2ccc(Sc3ccc(OCC(=O)N/N=C/c4ccc(C(C)C)cc4)cc3)cc2)cc1,"enzyme activity, inhibitor, Ellman",,120 µM
O=C(NCCCCCn1ccc2ccc(F)cc21)Oc1cccc(F)c1,"enzyme activity, inhibitor, HPLC",,1.5 µM
CCN(CCCCOc1ccc(CCC(=O)N2CCC(Cc3ccccc3)CC2)cc1OC)Cc1ccccc1,"enzyme activity, inhibitor, Ellman",,0.049 µM
O=C(/C=C/c1cccc(Cl)c1)c1cc2ccccc2oc1=O,"enzyme activity, inhibitor",,11.8 µM
CCOc1cc(/C=N/NC(=O)COc2ccc(Sc3ccc(OCC(=O)N/N=C/c4ccc(O)c(OCC)c4)cc3)cc2)ccc1O,"enzyme activity, inhibitor, Ellman",,239 µM
CC(=O)C1=NN(c2ccc3c(C)cc(=O)oc3c2)C(=O)C(Cc2ccccc2)N1 (centres unmarked),"enzyme activity, inhibitor, Ellman",pH 8,442 µM
Cc1nc2ccc(NCc3cn(CCCCCCOC4=CC(=O)c5ccccc5C4=O)nn3)cc2nc1C,"enzyme activity, inhibitor, Ellman",,3.8 µM
O=c1oc2c(CNCCc3cccc(F)c3)c(O)ccc2c2c1CCC2,"enzyme activity, inhibitor, Ellman",,24 µM
COc1cc(/C=C/C(=O)NC(C)C(N)=O)ccc1OCc1ccccc1 (centres unmarked),,,52 ± 1.42 µM
COC(=O)C1=CO[C@@H](OC(C)=O)[C@@H]2C(Cn3cc(CCN4C(=O)c5ccccc5C4=O)nn3)=CC[C@H]12,,horse serum enzyme,203 ± 1.7 µM
C/C(=C\CO)CCCC(C)CCCC(C)CCCC(C)C (centres unmarked),"enzyme activity, inhibitor",,80.6 µM

# For quick reference, copied from above:
Structure (SMILES),assay,conditions,IC50
CC(=O)C(Cl)=NNc1ccc2c(C)cc(=O)oc2c1,"enzyme activity, inhibitor, Ellman",pH 8,458 µM
COc1cc(CCC(=O)N2CCC(Cc3ccccc3)CC2)ccc1OCCCCN1CCCCC1,"enzyme activity, inhibitor, Ellman",,0.89 µM
O=C(COc1ccc(Sc2ccc(OCC(=O)N/N=C/c3ccccc3O)cc2)cc1)N/N=C/c1ccccc1O,"enzyme activity, inhibitor, Ellman",,78.9 µM
COC(=O)CCC1NC(C(C)=O)=NN(c2ccc3c(C)cc(=O)oc3c2)C1=O (centres unmarked),"enzyme activity, inhibitor, Ellman",pH 8,3.4 µM
CC(=O)C1=C(C)NC(SCCCSc2nnc(Cc3ccccc3Nc3c(Cl)cccc3Cl)n2-c2ccc(Cl)c(Cl)c2)=NC1c1ccc(C)cc1 (centres unmarked),"enzyme activity, inhibitor, Ellman",,36 µM
